Published values pooled from the literature.
Numbered parts are unrelated; each lists some results of a single study. Changes are numbered by the printed parent chain.

Block 1
Target: Histone acetyltransferase KAT6A, winged helix 2, GST fusion (KAT6A, Homo sapiens, UniProt Q92794, residues 85-181)
Technique: protein binding microarray
Form: double-stranded DNA, one strand shown
Matrix: in vitro
Concentration: not given
Notes: 8-mer, flanks averaged, mean of 2 arrays, mostly near background
Reference: not given
Direction: higher = stronger binding
Construct (chain): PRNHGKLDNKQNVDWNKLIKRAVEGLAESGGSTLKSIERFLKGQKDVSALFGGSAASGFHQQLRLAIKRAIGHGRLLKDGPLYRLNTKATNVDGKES
`CCAGATGC` gave an E-score of 0.0409.
With `ACCTCGAT` the E-score was 0.127.
With `GGCGCTCA` the E-score was -0.0283.
`GCCACTTA` has an E-score of -0.188.
`TCCTGTAA` gave an E-score of -0.078.
`GGAAGCAC` has an E-score of 0.0962.
With `TCTGTTAA` the E-score was -0.0831.
The E-score of `CATTAAAA` is reported as 0.267.
`CCTGTAAA` has an E-score of -0.111.
The E-score of `ACCCATAA` is reported as -0.115.
With `CCTCTTGC` the E-score was 0.0238.
The E-score of `CTGTTAGA` is reported as -0.246.
For `ATGCCCAA`, the E-score was -0.00788.
For `TCGGACGA`, the E-score was 0.0734.
For `AGGGAGAT`, the E-score was -0.2.
For `GTAGCCAA`, the E-score was -0.158.
The E-score of `CAAATTTG` is reported as 0.0297.
`ATAGAGTC` has an E-score of -0.235.
For `CGGCCCAC`, the E-score was 0.082.

Block 2
Target: ABI1, truncated, D143A, DHFR fusion (Arabidopsis thaliana)
Technique: DHFR PCA, deep sequencing
Matrix: yeast
Notes: methotrexate growth selection, single substitutions
With: (+)-ABA 0 µM
Reference: wild-type fitted maximum
Direction: higher = stronger binding
Parent: PYL1, truncated, DHFR fusion (Arabidopsis thaliana); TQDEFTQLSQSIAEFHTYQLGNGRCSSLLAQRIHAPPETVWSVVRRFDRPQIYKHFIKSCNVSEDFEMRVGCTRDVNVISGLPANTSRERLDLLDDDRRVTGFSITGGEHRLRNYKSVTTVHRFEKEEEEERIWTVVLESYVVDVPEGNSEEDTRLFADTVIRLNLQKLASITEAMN
`V145L` — result for “relative binding score”: -7.76%.
For `N114I`, “relative binding score” read 2.28%.
`K54P` — result for “relative binding score”: 3.16%.
Under “relative binding score”, `N114Q` is recorded as -3.17%.
Under “relative binding score”, `C72D` is recorded as 23.5%.
`L20C`: “relative binding score” 35.2%.
For `L138A`, “relative binding score” read 2.88%.
`N149E` — result for “relative binding score”: 27.5%.
Under “relative binding score”, `V100P` is recorded as -7.16%.
Under “relative binding score”, `R74V` is recorded as 2.21%.
Under “relative binding score”, `R49A` is recorded as 29.1%.
`E174S` — result for “relative binding score”: -0.668%.
`V44T` — result for “relative binding score”: -1.82%.
`N77Y` — result for “relative binding score”: 32.9%.
For `E67M`, “relative binding score” read 4.99%.
`T120M` — result for “relative binding score”: -4.14%.
Under “relative binding score”, `M176S` is recorded as 3.93%.
Under “relative binding score”, `S63K` is recorded as 21.1%.
Under “relative binding score”, `K116V` is recorded as 4.61%.
`E131H` — result for “relative binding score”: 47.5%.
`T39E` — result for “relative binding score”: 6.76%.
For `F66I`, “relative binding score” read -2.23%.
Under “relative binding score”, `L91H` is recorded as -2.63%.
Under “relative binding score”, `V78P` is recorded as 0.321%.
For `L112H`, “relative binding score” read -1.13%.

Block 3
Target: Interferon regulatory factor 5, full length, phosphomimetic (IRF5, Homo sapiens, UniProt Q13568-2, residues 1-514, K96S/S451D/S453D/S456D/S462D)
Technique: protein-binding microarray
Form: double-stranded DNA, one strand shown
Matrix: in vitro
Concentration: 250 nM
Notes: 60-bp whole probe
With: salmon DNA 0.4 mg/ml
Reference: random background probes
Direction: higher = stronger binding
Shared flanks, not repeated: GCCTAGCAC … GTCTTGATTCGCTTGACGCTGCTG
`GACGGTCTCCTTATCATGACGTGCTAG` gave a log fluorescence of 0.044 z-score.
The log fluorescence of `TTAAGACTGCTACTGCTTTAGTGCTAG` is reported as 0.154 z-score.
The log fluorescence of `GACGATAACAGACTGGAGACGTGCTAG` is reported as 0.366 z-score.
For `GACGGTAACCTTCTCCTGACGTGCTAG`, the log fluorescence was -0.13 z-score.
The log fluorescence of `TCATTATTTTTTTTATTACTGTGCTAG` is reported as 1.25 z-score.
For `CTGGTGCTCATCTGTCATGTTGTGCTA`, the log fluorescence was -0.202 z-score.
For `TTAGGTCTACTTCTCCTTTAGTGCTAG`, the log fluorescence was -0.0769 z-score.
For `GAGGAACTGGGGACTGGAGACGTGCTA`, the log fluorescence was -0.361 z-score.
For `ATAGGACTGCTTCTCCTTTAGTGCTAG`, the log fluorescence was -0.29 z-score.
For `TTAGATCCCAGACTGGATTAGTGCTAG`, the log fluorescence was -0.284 z-score.
`GACGATTTCAGACTGGAGTCGTGCTAG` has a log fluorescence of 0.221 z-score.
`GACGGTCTCGGTTTAGGGACGTGCTAG` has a log fluorescence of 0.709 z-score.
For `TCACGGCTCGTTATCCTACTGTGCTAG`, the log fluorescence was -0.29 z-score.
The log fluorescence of `TTACGTTTCCTACTGCTTTAGTGCTAG` is reported as 1.36 z-score.
`TTAGAAATCAGTTTCGATTAGTGCTAG` has a log fluorescence of 10.2 z-score.
With `TCTTTTTCCTAATTGAACCCGTGCTAG` the log fluorescence was 0.888 z-score.
`TTAGAACTGAGTATCTATTAGTGCTAG` gave a log fluorescence of 1.06 z-score.
For `ATAGATATCAGTTTCGATTAGTGCTAG`, the log fluorescence was 10.5 z-score.
With `TTAGACTTCGGGACTGGATTAGTGCTA` the log fluorescence was -0.133 z-score.
With `AGGGTCCCGCGATTCGACACGTGCTAG` the log fluorescence was -0.684 z-score.
`TCACGTCTCTATCAAAAACTGTGCTAG` gave a log fluorescence of 0.62 z-score.
`TAAGGTCTCGGTCTCGGTTAGTGCTAG` has a log fluorescence of 0.573 z-score.

Block 4
Target: Hepatocyte nuclear factor 3-beta, forkhead domain (FOXA2, Homo sapiens, UniProt Q9Y261, residues 142-269)
Technique: protein-binding microarray
Form: double-stranded DNA, one strand shown
Matrix: in vitro
Concentration: not given
Notes: k-mer, scored over probes, only values ≥0.25
Direction: higher = stronger binding
Target sequence (chain): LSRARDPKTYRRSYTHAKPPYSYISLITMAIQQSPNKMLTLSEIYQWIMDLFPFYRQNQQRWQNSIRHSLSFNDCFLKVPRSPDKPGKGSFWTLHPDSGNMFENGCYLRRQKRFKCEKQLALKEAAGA
With `ATATCGAT` the E-score was 0.277.
`GTGTATTA` gave an E-score of 0.364.
`ATACATCA` gave an E-score of 0.309.
The E-score of `TAGACATA` is reported as 0.353.
With `AAAGCAAT` the E-score was 0.281.
`AGCTGTAT` has an E-score of 0.278.
`AATAGAAT` gave an E-score of 0.269.
`ATGCAAAT` gave an E-score of 0.258.
`AAATTGTT` has an E-score of 0.254.
For `CATATATG`, the E-score was 0.444.
For `GTTTAGTA`, the E-score was 0.254.
The E-score of `AATATTAT` is reported as 0.313.
`AATACATC` has an E-score of 0.324.
The E-score of `AGTAGTAT` is reported as 0.263.
`GACAATAA` has an E-score of 0.277.
The E-score of `ACAGACAA` is reported as 0.354.
`CTTCTACA` has an E-score of 0.26.
`GTATTTAA` has an E-score of 0.334.
For `AAAAACAA`, the E-score was 0.295.
`CAAATAGC` gave an E-score of 0.291.
`AATAGTTG` has an E-score of 0.284.
`GAGTAAAC` gave an E-score of 0.298.
The E-score of `ATCCTATC` is reported as 0.276.
For `CACATTTA`, the E-score was 0.331.
The E-score of `AATATGAA` is reported as 0.333.

Block 5
Target: RNA binding protein fox-1 homolog 2, RRM domain, GST-SBP tag (RBFOX2, Homo sapiens, UniProt O43251-10, residues 100-194)
Technique: RNA Bind-n-Seq
Form: RNA
Matrix: in vitro
Concentration: 365 nM
Notes: natural RNA segment, single round, ends assumed
Reference: no-protein control
Direction: higher = stronger binding
Target sequence (chain): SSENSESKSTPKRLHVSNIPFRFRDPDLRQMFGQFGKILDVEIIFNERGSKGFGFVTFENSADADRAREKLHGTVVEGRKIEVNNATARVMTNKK
Under “RBNS enrichment (R)”, `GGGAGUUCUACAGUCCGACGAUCAAUAGGUUAUAUGCAAGCACUAUGCCCUUUUAUAUAAGUGACUUGAACAUCUGUGCCCGAUUUUAGUAUGUGCAGGGGGGCGAUCUGGGAAUCAGUCCCCUGUGGAUACCUGGAAUUCUCGGGUGCCAA` is recorded as 0.483.
`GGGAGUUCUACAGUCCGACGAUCCUCAGGAAAGCUGUUUUUACACUGAACAGCCAGCCUUGCUCUGUAGCAGGUGUGCUCGAGGACUGUGGACGUUGACUUCCCUUGGAUCCUUACAUGUAAACUUGCGUGUUUGGAAUUCUCGGGUGCCAA` — result for “RBNS enrichment (R)”: 0.221.
`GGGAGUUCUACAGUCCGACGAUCUAGGAGUGGGCAGGGCCGAAUGGAUGGGAGCGGAAGAGAAUGUCUUAGGAACAAGGAGUUGACAAGAGACUCCCCAGAGAGUCCUUGCGUCCACAAGGCCUCCUGAUACCUGGAAUUCUCGGGUGCCAA` — result for “RBNS enrichment (R)”: 0.854.
For `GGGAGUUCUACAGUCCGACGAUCGUUAACUCUCACUAGGAAUAGCUUUGGCUUAAGAGUCCAGCAGGGGCAACUUCCUGAGAUGAAUGAAGUACAGGAAAAUGAAAGAUUAGAGGGAUGUGUGACGGAAUACAUGGAAUUCUCGGGUGCCAA`, “RBNS enrichment (R)” read 3.43.
`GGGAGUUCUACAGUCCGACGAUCUUUCCUUGCAUACAAAUAAGCAUAUAAAAUGGCAACAAACUGCACAUGAUUUCACAAAUAUUAAAAUGUCUUUUAAAAAGUAUUGCCAAACAGUAAUGUUGAUUUCUAGUUGGAAUUCUCGGGUGCCAA` — result for “RBNS enrichment (R)”: 0.96.
`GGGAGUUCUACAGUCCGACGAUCUUUGACUCCCUGACUUCAAGCCAGGGUUGUGCCUUACUGUCCCUUUUCUGGGCCUCAUUCUGCCAAAGCUGGACCAAGGUUCCAUCUUUCUAAGCUCCCUAGCUCAGGCCUGGAAUUCUCGGGUGCCAA`: “RBNS enrichment (R)” 0.258.
`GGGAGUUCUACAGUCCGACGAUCCUUACUUGAAACAGACAAUGAAAACAACCAAAGUGAUAUAUAAAAUAGUUGAUGAGAACUAGACUUAUGACUGUAGUUUACUAGAGUUUAGUUUUCAGUUGCUGAAGUAGUGGAAUUCUCGGGUGCCAA`: “RBNS enrichment (R)” 0.801.
For `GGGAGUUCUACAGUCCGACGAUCGAAAUAUUGUGAUGCCCACCACGUCUGUAUUUCUUCUCUACUCCCCAGUCUUAACGUUUAUCUUUGAAUGCUAUUUAUUCAAAUAGCGUGAGGAGUUAGAAGAUGAGGUGUGGAAUUCUCGGGUGCCAA`, “RBNS enrichment (R)” read 0.334.
`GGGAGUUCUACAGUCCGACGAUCAAAAAAACAAAACAAAAACAAACCUUUUUUGUAAGUUCAUCCAUUUUCUACAGAAGUCCAGCCCAGAGUCCCCACUUUGCUAGUGCUGCCUGGCUGCCACCGCCUAACGCUGGAAUUCUCGGGUGCCAA`: “RBNS enrichment (R)” 0.554.
For `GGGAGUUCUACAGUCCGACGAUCCUCCUACCAAGCAGGAGGCCAGGAACUUCUUUGGACUUGGAAGGUGUGCGGGGACUGGCCGAGGCCCCUGCACCCUGCGCAUCAGGACUGCUUCAUCGUCUUGGCUGAGAUGGAAUUCUCGGGUGCCAA`, “RBNS enrichment (R)” read 0.497.
Under “RBNS enrichment (R)”, `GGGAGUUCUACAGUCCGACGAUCUGUGAUGUCUAACUCUGCAUAGCCUUUUCUCUUCAUAUCUGCGGCCUAUCUUUUCCCCUUACAUAUGUCUUUGUCCUUCUUUCCCAAAGAUGUCAAAUACAAUGCAGCAUUGGAAUUCUCGGGUGCCAA` is recorded as 0.592.
`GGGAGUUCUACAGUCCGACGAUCUUUAAUUUAAAUGACGCUUUGCUAAUUUUAAGUGUUAAGCAUUUUGCAUUAAAAUAUUCAUAUAAUAUUUUGGCUCAGUUUAUUGGCAUUAUCCUCUCAUUGUGGUUUCAUGGAAUUCUCGGGUGCCAA`: “RBNS enrichment (R)” 0.999.

Repeated from above (block 3):
The log fluorescence of `TTAAGACTGCTACTGCTTTAGTGCTAG` is reported as 0.154 z-score.
The log fluorescence of `GACGATAACAGACTGGAGACGTGCTAG` is reported as 0.366 z-score.
For `TTAGGTCTACTTCTCCTTTAGTGCTAG`, the log fluorescence was -0.0769 z-score.
`TTAGAAATCAGTTTCGATTAGTGCTAG` has a log fluorescence of 10.2 z-score.
For `TTAGATCCCAGACTGGATTAGTGCTAG`, the log fluorescence was -0.284 z-score.
With `TTAGACTTCGGGACTGGATTAGTGCTA` the log fluorescence was -0.133 z-score.
`GACGGTCTCGGTTTAGGGACGTGCTAG` has a log fluorescence of 0.709 z-score.
